Measurements gathered from unrelated publications.
Lines come from different studies, so protocols differ.
Organism: Staphylococcus aureus

For CC(=NNC(=N)N)c1nnn(-c2ccc(C#CC3(O)CCCCC3)cc2)c1C, “time to eradication” read no more than 24 h (time-kill; MRSA; 4 × MIC, 37 °C).
With Fc1ccc2nc3c4cccnc4c4ncccc4c3nc2c1.[Cl-].[Cl-].[Ru+2].c1ccncc1.c1ccncc1.c1ccncc1.c1ccncc1 the MIC90 was 4 µM (MRSA ATCC 43300; LED irradiation 470 nm).
CCCCCCCCCC(=O)N[C@@H](Cc1c[nH]c2ccccc12)C(=O)N[C@H](CC(N)=O)C(=O)N[C@@H](CC(=O)O)C(=O)N[C@@H]1C(=O)NCC(=O)N[C@@H](CCCNC(=O)OC2/C=C/CCCCC2)C(=O)N[C@@H](CC(=O)O)C(=O)N[C@H](C)C(=O)N[C@@H](CC(=O)O)C(=O)NCC(=O)N[C@H](CO)C(=O)N[C@@H]([C@H](C)CC(=O)O)C(=O)N[C@@H](CC(=O)c2ccccc2N)C(=O)O[C@@H]1C (stereo partly drawn) has an MBEC of 64 µg/mL (MRSA biofilm, porous glass beads; 24 h, 37 °C, TAG gel).
The growth inhibition of CC(C)C[C@H](NC(=O)[C@H](CC(=O)O)NC(=O)[C@H](CO)NC(=O)[C@@H](NC(=O)[C@H](CCC(=O)O)NC(=O)[C@H](CC(=O)O)NC(=O)[C@@H]1CCCN1C(=O)[C@@H](N)CC(C)C)C(C)C)C(=O)N[C@@H](CCC(=O)O)C(=O)O is reported as 36.4% (OD600; ATCC 25923; concentration not given, 18 to 22 h, 37 °C, unheated).
CCOC(=O)c1sc(N/N=C/c2c(-c3ccc(C)cc3)nc3ncccn23)nc1C has an inhibition zone of 15 mm (microbial growth, well diffusion; ATCC23235; 100 µg/mL).
CC[C@H](C)[C@H](NC(=O)[C@H](CCCCN)NC(=O)[C@H](CCCCN)NC(=O)[C@H](CC(C)C)NC(=O)[C@H](CCCCN)NC(=O)[C@H](CCC(=O)O)NC(=O)[C@H](CCCCN)NC(=O)[C@@H](NC(=O)[C@H](CCCCN)NC(=O)[C@H](CC(N)=O)NC(=O)[C@H](CCCNC(=N)N)NC(=O)[C@H](Cc1ccccc1)NC(=O)[C@H](CCCCN)NC(=O)[C@H](CCCNC(=N)N)NC(=O)[C@H](CC(C)C)NC(=O)[C@H](CCCNC(=N)N)NC(=O)[C@H](CCCCN)NC(=O)[C@H](CCCNC(=N)N)NC(=O)[C@H](CC(C)C)NC(=O)[C@@H](N)CC(C)C)[C@@H](C)CC)C(=O)NCC(=O)N[C@@H](CCC(N)=O)C(=O)N[C@@H](CCCCN)C(=O)N[C@H](C(=O)N[C@@H](CCC(N)=O)C(=O)NCC(=O)N[C@@H](Cc1ccccc1)C(=O)N[C@H](C(=O)N1CCC[C@H]1C(=O)N[C@@H](CCCCN)C(=O)N[C@@H](CC(C)C)C(=O)N[C@H](C(=O)N1CCC[C@H]1C(=O)N[C@@H](CCCNC(=N)N)C(=O)N[C@H](C(=O)N[C@@H](CCC(=O)O)C(=O)N[C@@H](CO)C(=O)O)[C@@H](C)O)C(C)C)C(C)C)[C@@H](C)CC gave a lethal concentration of 2.08 µM (inhibition zone; MRSA P1374).
C[C@@H](O)[C@H](N)C(=O)N[C@@H](CS)C(=O)N[C@@H](Cc1ccc(O)cc1)C(=O)N[C@@H](CS)C(=O)N[C@@H](CCCNC(=N)N)C(=O)N[C@H](C(=O)NCC(N)=O)[C@@H](C)O gave an EC50 ratio of 10 fold (virtual colony-count; MRSA ATCC 43300; reference: MRSA over susceptible S. aureus).
C=Cc1cc(OC)c2c(c1)c(=O)oc1c2cc(OC)c2c(O)ccc([C@@H]3O[C@H](C)[C@H](O)[C@@](C)(O)[C@H]3O)c21: lesion size “decreased” (MRSA USA300, BALB/c mouse, epicutaneous infection; dose not given, day 16; reference: vehicle).
The LC99.9 of CC[C@H](C)[C@H](NC(=O)[C@H](CCCCN)NC(=O)[C@H](CCCCN)NC(=O)[C@H](Cc1c[nH]c2ccccc12)NC(=O)[C@H](CC(N)=O)NC(=O)[C@@H](NC(=O)COCCOCCOCCOCCOCCOCCOC(=O)NCCCCCCNC(=O)NCCCCCCNC(=O)Nc1nc(=O)cc(C)[nH]1)C(C)C)C(=O)N[C@@H](CC(C)C)C(=O)NCC(=O)N[C@@H](CCCCN)C(=O)N[C@H](C(=O)N[C@H](C(=O)N[C@@H](CCCCN)C(=O)N[C@H](C(=O)N[C@H](C(=O)N[C@@H](CCCCN)C(N)=O)C(C)C)C(C)C)[C@@H](C)CC)[C@@H](C)CC is reported as 7.5 µM (MRSA AMC 201, RPMI medium; 24 h, 37 °C).
